{"data": "Assay results of several laboratories", "RPS6KA5 C-terminal kinase domain": "Ribosomal protein S6 kinase alpha-5, C-terminal kinase domain (RPS6KA5, Homo sapiens, UniProt O75582)", "RPS6KA5": "Ribosomal protein S6 kinase alpha-5 (RPS6KA5, Homo sapiens, UniProt O75582)", "RPS6KA5 N-terminal kinase domain": "Ribosomal protein S6 kinase alpha-5, N-terminal kinase domain (RPS6KA5, Homo sapiens, UniProt O75582)", "note": "Protocols differ between the studies behind these lines."}
{"SMILES": "C=CC(=O)N1CCCC(n2c(=O)c3ncccc3n(Cc3ccc(Oc4ccccc4)cc3)c2=O)C1 (stereo not shown)", "target": "RPS6KA5 C-terminal kinase domain", "assay": "binding, competition with immobilised ligand", "setting": "1 µM", "endpoint": "remaining binding", "result": "88%"}
{"SMILES": "CNC(=O)C[C@H](Cc1ccc(C#N)cc1)NC(=O)c1cc(-c2ccc(CN[C@H](C)c3ccc(C)cc3)o2)ccc1Cl", "target": "RPS6KA5", "assay": "enzyme activity, inhibitor", "setting": "1 µM", "endpoint": "activity vs control", "result": "92%"}
{"SMILES": "CN1CC[C@@H](COc2cnc(C#N)cc2-c2ccn3nc(NC(=O)C4CC4)cc3c2)C1", "target": "RPS6KA5", "assay": "enzyme activity, inhibitor", "setting": "1 µM", "endpoint": "inhibition", "result": "9%"}
{"SMILES": "COc1c(Cl)cccc1Nc1c(-c2ccncc2C#C[C@@]2(C)CCCN2C(=O)/C=C/CN(C)C)[nH]c2c1C(=O)NCC2", "target": "RPS6KA5 N-terminal kinase domain", "assay": "binding, competition with immobilised ligand", "setting": "3 µM", "endpoint": "remaining binding", "result": "91%"}
{"SMILES": "Cc1cccc(-c2ccc3nc(NC(=O)C4CCCCC4)nn3c2)c1", "target": "RPS6KA5", "assay": "enzyme activity, Dundee kinase panel", "setting": "10 µM", "endpoint": "remaining activity", "result": "68%"}
{"SMILES": "Cc1cccc(O[C@H]2CCC[C@@H](C(C)CNCc3ccncc3)C2)c1 (relative stereo)", "target": "RPS6KA5", "assay": "enzyme activity, inhibitor", "setting": "1 µM", "endpoint": "inhibition", "result": "6%"}
{"SMILES": "COc1c(OCCCN2CCOCC2)ccc2c1N=C(NC(=O)c1cnc(N)nc1)N1CCN=C21", "target": "RPS6KA5", "assay": "kinase activity, inhibitor", "setting": "1 µM", "how to read": "baseline: untreated control", "endpoint": "remaining activity", "result": "106%"}
{"SMILES": "Cc1cnc2nc1Nc1cccc(c1)COC/C=C/COCc1cc(ccc1OCCN1CCOCC1)N2", "target": "RPS6KA5 C-terminal kinase domain", "assay": "binding, competition with immobilised ligand", "setting": "0.1 µM", "endpoint": "remaining binding", "result": "91%"}
{"SMILES": "COc1cc(Nc2nc(C)cc(-c3cnn4nc(OC)ccc34)n2)cc(C(F)(F)F)c1", "target": "RPS6KA5 C-terminal kinase domain", "assay": "binding, competition with immobilised ligand", "setting": "1 µM", "endpoint": "remaining binding", "result": "95%"}
{"SMILES": "CN1CCN(Cc2ccc(-c3ccc(CO[C@H]4CCC[C@@H]4NC(=O)c4cc(-c5cnn(C)c5)cnc4N)cc3)cc2)CC1", "target": "RPS6KA5", "assay": "enzyme activity, inhibitor", "setting": "0.1 µM", "endpoint": "inhibition", "result": "1%"}
{"SMILES": "Cc1cccc(-c2ccc3nc(NC(=O)C4CCCO4)nn3c2)c1 (stereo not shown)", "target": "RPS6KA5", "assay": "enzyme activity, Dundee kinase panel", "setting": "10 µM", "endpoint": "remaining activity", "result": "71%"}
{"SMILES": "Nc1nc(Nc2ccccc2)sc1C(=O)c1ccccc1", "target": "RPS6KA5", "assay": "enzyme activity, inhibitor", "setting": "10 µM", "endpoint": "remaining activity", "result": "73%"}
{"SMILES": "Nc1ncc2c(n1)-c1c([nH]c3ccc(C4=CCOCC4)cc13)CCC2", "target": "RPS6KA5 N-terminal kinase domain", "assay": "binding, competition with immobilised ligand", "setting": "1 µM", "endpoint": "remaining binding", "result": "100%"}
{"SMILES": "CNC1C[S+]2CC[S+]3CC[S+](C1)[Ru-4]321([N]=C=S)[n]2c3ccc(OC)cc3c3c4c(c5cc(F)c[n+]1c5c32)C(=O)NC4=O (stereo not shown)", "target": "RPS6KA5 N-terminal kinase domain", "assay": "KinomeScan", "setting": "0.1 µM", "how to read": "baseline: untreated", "endpoint": "remaining binding", "result": "46%"}
{"SMILES": "COc1cc(Nc2nccc(-c3cnn4nc(OC)ccc34)n2)cc(C(F)(F)F)c1", "target": "RPS6KA5 C-terminal kinase domain", "assay": "binding, competition with immobilised ligand", "setting": "1 µM", "endpoint": "remaining binding", "result": "96%"}
{"SMILES": "C=CC(=O)N1Cc2nc(-c3cc(-c4cc(Cl)cnc4Cl)c(F)cc3F)n(-c3ccncn3)c2C1", "target": "RPS6KA5", "assay": "cell-free assay, inhibitor", "setting": "1 µM", "endpoint": "inhibition", "result": "-0.8%"}
{"SMILES": "NC(=O)C[C@H]1CCc2sc3ncnc(O[C@H]4CC[C@H](N5CCOCC5)CC4)c3c21", "target": "RPS6KA5", "assay": "enzyme activity, inhibitor", "setting": "10 µM", "endpoint": "inhibition", "result": "2%"}
{"SMILES": "CC(C)=CC1OC(C)(C)C2C=C3C(=O)C(Cl)=CC(O)C3C3C(O)C4OC4C(=O)C132 (stereo not shown)", "target": "RPS6KA5 N-terminal kinase domain", "assay": "binder, KINOMEscan competition binding", "setting": "10 µM", "how to read": "baseline: DMSO control", "endpoint": "remaining binding", "result": "89%"}
{"SMILES": "CNC(=O)C1CCN(c2cc(C)c(F)cc2NC(=O)c2ccc(-c3cc(O)ccc3C)c(C)c2)CC1", "target": "RPS6KA5 N-terminal kinase domain", "assay": "binding, competition with immobilised ligand", "setting": "1 µM", "endpoint": "remaining binding", "result": "100%"}
{"SMILES": "C=CC(=O)Nc1cccc(-c2cnc3[nH]cc(C(=O)NC(C)(C)C)c3n2)c1", "target": "RPS6KA5", "assay": "enzyme activity, inhibitor", "setting": "0.1 µM", "endpoint": "inhibition", "result": "7%"}
{"SMILES": "Cc1ccc(-c2c(/C=C(\\C#N)C(=O)NC(C)C)n(CCCO)c3ncnc(N)c23)cc1", "target": "RPS6KA5 N-terminal kinase domain", "assay": "binding, competition with immobilised ligand", "setting": "1 µM", "endpoint": "remaining binding", "result": "100%"}
{"SMILES": "COc1ccc(C(=O)/C=C/c2ccccc2-c2c[nH]c3ccc(C#N)cc23)c(O)c1", "target": "RPS6KA5", "assay": "enzyme activity, inhibitor", "setting": "20 µM", "endpoint": "inhibition", "result": "17%"}
{"SMILES": "c1ccc2c(Nc3cc(C4CCC4)[nH]n3)nc(Nc3ccc4nc[nH]c4c3)nc2c1", "target": "RPS6KA5", "assay": "enzyme activity, inhibitor", "setting": "0.25 µM", "endpoint": "remaining activity", "result": "21%"}
{"SMILES": "CCN1CCN(Cc2ccc(C(=O)Nc3ccc(C)c(NCc4cnc5[nH]ccc5c4OC)c3)cc2C(F)(F)F)CC1", "target": "RPS6KA5 N-terminal kinase domain", "assay": "binding, competition with immobilised ligand", "setting": "1 µM", "endpoint": "remaining binding", "result": "69%"}
{"SMILES": "O=C(Cc1ccc(OCc2ccccc2)cc1)NC1(C(=O)O)CCN(C(=O)c2ccc(-c3cccc(Cl)c3)cc2)CC1", "target": "RPS6KA5", "assay": "enzyme activity, inhibitor", "setting": "10 µM", "endpoint": "activity vs control", "result": "137%"}
{"note": "For quick reference, copied from above:"}
{"SMILES": "Cc1ccc(-c2c(/C=C(\\C#N)C(=O)NC(C)C)n(CCCO)c3ncnc(N)c23)cc1", "target": "RPS6KA5 N-terminal kinase domain", "assay": "binding, competition with immobilised ligand", "setting": "1 µM", "endpoint": "remaining binding", "result": "100%"}
{"SMILES": "COc1ccc(C(=O)/C=C/c2ccccc2-c2c[nH]c3ccc(C#N)cc23)c(O)c1", "target": "RPS6KA5", "assay": "enzyme activity, inhibitor", "setting": "20 µM", "endpoint": "inhibition", "result": "17%"}
{"SMILES": "Nc1ncc2c(n1)-c1c([nH]c3ccc(C4=CCOCC4)cc13)CCC2", "target": "RPS6KA5 N-terminal kinase domain", "assay": "binding, competition with immobilised ligand", "setting": "1 µM", "endpoint": "remaining binding", "result": "100%"}
{"SMILES": "Cc1cccc(-c2ccc3nc(NC(=O)C4CCCCC4)nn3c2)c1", "target": "RPS6KA5", "assay": "enzyme activity, Dundee kinase panel", "setting": "10 µM", "endpoint": "remaining activity", "result": "68%"}
